Measurements from different studies.
Numbered parts are unrelated; each lists some results of a single study.

Block 1 — cell line: HEK-293T; observed: pseudovirus infection; organism: VSV pseudotyped with SARS-CoV-2 spike; tested at: 10 µM; time: 16 h; relative to: vehicle-treated
| SMILES | GFP-positive cells [%] |
| --- | --- |
| COc1ccc(-n2nc(C(N)=O)c3c2C(=O)N(c2ccc(N4CCCCC4=O)cc2)CC3)cc1 | 81.2 |
| C[C@]1(O)CC[C@H]2[C@@H]3CCC4=CC(=O)CC[C@]4(C)[C@@]3(F)[C@@H](O)C[C@@]21C | 81.7 |
| C[C@H]1CNCCc2ccc(Cl)cc21 | 87.4 |

Block 2 — technique: protein-binding microarray; form: double-stranded DNA, one strand shown; matrix: in vitro; tested at: not given; direction: higher = stronger binding
Target: Myc proto-oncogene protein, bHLH-zipper, MAX partner unstated (MYC, Homo sapiens, UniProt P01106, residues 368-449)
Sequence of UniProt P01106 (368-449, looked up): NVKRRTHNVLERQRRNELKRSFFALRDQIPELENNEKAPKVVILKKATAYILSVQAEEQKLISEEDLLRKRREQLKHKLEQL
Setting: k-mer, scored over probes, only values ≥0.25
| Sequence | E-score |
| --- | --- |
| CGCAACCA | 0.259 |
| ACGTGTGA | 0.379 |
| CACCCCGC | 0.334 |
| CACGTGAC | 0.487 |

Block 3 — action: inhibitor; tested at: 20 µM
Target: Replicase polyprotein 1ab, nsp13 helicase (rep, Severe acute respiratory syndrome coronavirus 2, UniProt P0DTD1)
| SMILES | inhibition [%] |
| --- | --- |
| CN(CCOc1ccc(-c2ccc3c(c2)OCO3)cc1C(C)(C)C)CC(=O)O | 4.66 |
| CN(CCOc1ccc(NS(C)(=O)=O)cc1)CCc1ccc(NS(C)(=O)=O)cc1 | 5.18 |
| N[C@@H]1CCCN(c2c(/C=C3\SC(=O)NC3=O)cccc2-c2ccccc2)C1 | 12.6 |
| NCCNCCNCCN | -3.12 |
| CCOC(=O)[C@H](CCc1ccccc1)N[C@H]1CS[C@H](c2cccs2)CN(CC(=O)O)C1=O | 4.32 |
| N#CN1CCCC1 | 3.47 |
| COc1cc(OC)nc(O[C@H](C(=O)O)C(OC)(c2ccccc2)c2ccccc2)n1 | 4.84 |
| Cc1cc(=O)[nH]c(=S)[nH]1 | 3.88 |
| O=[N+]([O-])c1cn2c(n1)OC[C@@H](OCc1ccc(OC(F)(F)F)cc1)C2 | 6.9 |
| Cc1noc2c1-c1ccccc1C(c1ccc(Cl)cc1)=N[C@H]2CC(N)=O | -13.1 |
| CN(C)CCOC1=Cc2ccccc2Sc2ccc(Cl)cc21 | 1.41 |
| O=C1Nc2ccc(Cl)cc2[C@@](C#CC2CC2)(C(F)(F)F)O1 | -2.89 |
| O=c1cc(-c2ccccc2)oc2cc(O)cc(O)c12 | 7.35 |
| CC(=O)Nc1ccc(OCC(O)CNC(C)C)cc1 (stereo not shown) | 2.49 |
| NC[C@H]1O[C@H](O[C@H]2[C@H](O[C@@H]3O[C@H](CO)[C@@H](O)[C@H]3O)[C@@H](O)[C@H](N)C[C@@H]2N)[C@H](N)[C@@H](O)[C@@H]1O | 3.37 |
| CCCC(=O)O[C@]1(C(=O)CO)CC[C@H]2[C@@H]3CCC4=CC(=O)CC[C@]4(C)[C@H]3[C@@H](O)C[C@@]21C | 10.4 |
| CCC(=O)O[C@]1(C(=O)COC(C)=O)CC[C@H]2[C@@H]3C[C@H](C)C4=CC(=O)C=C[C@]4(C)[C@H]3[C@@H](O)C[C@@]21C | 7.07 |
| CC(C)(C#N)c1cc(Cn2cncn2)cc(C(C)(C)C#N)c1 | -3.83 |
| CCCCCN(CCCOC)C(=O)[C@@H](CCC(=O)O)NC(=O)c1ccc(Cl)c(Cl)c1 | -0.84 |
| Cc1cc(O)c2c(c1)C(=O)c1cccc(O)c1C2=O | 22.1 |
| CCCc1cc(C(N)=S)ccn1 | 3.16 |
| Cc1cc(Nc2nc(N[C@@H](C)c3ncc(F)cn3)ncc2Cl)[nH]n1 | 0.42 |
| COc1ccc(-c2noc(CC(=O)O)c2-c2ccc(OC)cc2)cc1 | 8.32 |
| O=C(Cc1cccc(OC(F)(F)F)c1)Nc1ccc(CCCCc2nnc(NC(=O)Cc3ccccn3)s2)nn1 | 4 |
| Cc1c(Nc2ncccc2C(=O)O)cccc1C(F)(F)F | 6.38 |

Block 4 — observed: enzyme activity; action: inhibitor
Target: Replicase polyprotein 1ab, main protease (rep, Severe acute respiratory syndrome coronavirus 2, UniProt P0DTD1)
| SMILES | IC50 [µM] |
| --- | --- |
| O=C1C(=Cc2cccnc2)C(=O)c2ccccc21 | > 20 |
| O=[N+]([O-])c1ccc(Sc2cccc[n+]2[O-])c2nonc12 | 0.53 |
| CCN(CC)S(=O)(=O)c1cccc(-n2sc3ccccc3c2=O)c1 | 5.75 |
| CC(=O)O/N=C1/C(=O)N(Cc2cc(Cl)ccc2Cl)c2ccc(Cl)cc21 | 13.2 |

Block 5 — technique: RNA Bind-n-Seq; form: RNA; matrix: in vitro; tested at: 200 nM; setting: whole 134-nt RNA, ends assumed; together with: 150 mM KCl; relative to: input library; direction: higher = stronger binding
Target: Ras GTPase-activating protein-binding protein 1, full length (G3BP1, Homo sapiens, UniProt Q13283)
Sequence of UniProt Q13283 (whole entry, looked up): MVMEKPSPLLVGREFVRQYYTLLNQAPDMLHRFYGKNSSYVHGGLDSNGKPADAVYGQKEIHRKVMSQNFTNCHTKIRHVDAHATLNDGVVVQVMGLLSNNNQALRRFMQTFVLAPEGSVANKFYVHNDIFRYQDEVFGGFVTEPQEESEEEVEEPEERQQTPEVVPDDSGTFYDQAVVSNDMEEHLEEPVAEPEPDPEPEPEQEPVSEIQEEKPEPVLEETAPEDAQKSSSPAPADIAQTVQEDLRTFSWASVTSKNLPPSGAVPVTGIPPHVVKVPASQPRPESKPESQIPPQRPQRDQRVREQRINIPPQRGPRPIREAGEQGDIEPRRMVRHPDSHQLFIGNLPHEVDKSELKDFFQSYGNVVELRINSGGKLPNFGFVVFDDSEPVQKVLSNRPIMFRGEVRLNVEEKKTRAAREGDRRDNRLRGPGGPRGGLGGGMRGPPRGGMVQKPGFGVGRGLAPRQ
Shared flanks, not repeated: GGGAGUUCUACAGUCCGACGAUC … UGGAAUUCUCGGGUGUCAAGG
| Sequence | log2 enrichment |
| --- | --- |
| CAAGUCCUGUGCUACACAUCGUAUGUACCGAAUCGGUGGUUUUUGGAAAAAAAGGAAAGUAUUAUGUUACGCCGUUCGGAUCUGCACUUC | -0.677 |
| GCAGGAAGUAAAAACAAAUGGAAAUGCUUCGGAUAGUGGCAGGGGUGGGGGUUGCUAAGGAAAGGGUGGAAUGGGAGUGGGUAAAGAGUU | 0.935 |
| UCCUGUGCUACACAUCGUAUGUACCGAAUCAAACCCCCCCAAAUUUUUUUAAACCCAAAAAAGUAUUAUGUUACGCCGUUCGGAUCUGCA | 0.24 |
| GCAGGAAGUAAAAACAAAUGGAAAUGCUUCGGAUAGUGGCAGGGGUGGGGGUUGCUAAGGAAAGGGUGGGAUGGGAGUAAAUAAAGAGUU | 0.866 |
| UCAAGUCCUGUGCUACACAUCGUAUGUACCGAAUCGGGAGGGUUUGGGUUUGGGAAAGUAUUAUGUUACGCCGUUCGGAUCUGCACUUCC | 1 |
| UGGCCCUGGUGGCAUGCGGGGAGGAAGAGGUGGCCUCAUGGAUCGGGGUGGUCCCGGUGGAAUGUUCAGAGGUGGCCGUGGUGGAGACAG | -0.107 |
| GUCCUGUGCUACACAUCGUAUGUACCGAAUCGGGGAAAAAGGGAAAAAGGAAAAAGGGAAAGUAUUAUGUUACGCCGUUCGGAUCUGCAC | -0.386 |
| UAACUUUGGAGGAGGAUCUGAUGGAUAUGGCAGUGGACGUGGAUUUGGGGAUGGCUAUAAUGGGUAUGGAGGAGGACCUGGAGGUGGCAA | 0.339 |

Block 6 — technique: RNA Bind-n-Seq; form: RNA; matrix: in vitro; tested at: not given; relative to: input RNA pool; direction: higher = stronger binding
Target: RING finger protein unkempt homolog, zinc fingers 1-6, GST-SBP tag (UNK, Homo sapiens, UniProt Q9C0B0, residues 30-357)
Setting: RNA with constant flanks, human and mouse sites, ends assumed
Shared flanks, not repeated: GGGAGUUCUACAGUCCGACGAUC … CAACAGAGGAUUGAGCAUCA
Construct (chain): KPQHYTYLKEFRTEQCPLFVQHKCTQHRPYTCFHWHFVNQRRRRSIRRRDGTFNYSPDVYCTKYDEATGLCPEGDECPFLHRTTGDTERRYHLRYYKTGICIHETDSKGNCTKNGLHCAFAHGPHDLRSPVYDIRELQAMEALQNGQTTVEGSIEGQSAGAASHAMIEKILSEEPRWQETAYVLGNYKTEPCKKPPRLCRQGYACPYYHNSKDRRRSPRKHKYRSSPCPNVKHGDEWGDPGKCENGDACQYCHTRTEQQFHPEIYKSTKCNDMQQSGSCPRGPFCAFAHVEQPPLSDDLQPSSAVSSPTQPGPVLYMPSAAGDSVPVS
| Sequence | bound/input enrichment |
| --- | --- |
| CGUCAAACUUUUGGUUGUGUGGGGUUUUUUGUUGUUUUUUGGGUUUUGUUUUUUAAUACUUUAGGGUCCUGAUUUGUGGGAACAGACCUUCUUGUAAAUAACCACUAUUUGAGUUGUGGC | 0.675 ratio |
| GCUGCAUCUGACAGAGCAAGUAGACGAGAGGCUGGGUGGUGGGCUCCGGCCAGCCCGAGUCUUAGAGCUGGUGGUUGGUUAUAUCUGGUGCCUGUCUCGAGGAGGGCUUGAGACACAGUG | 0.574 ratio |
| GACUUGGACCUUCCUGGGCUAGUGCAAAUAGCGGCAGUGGAGGCUCAAGAGGAAAGUUUGUUAGUGGAGGCAGUGGUAGAGGUCGUCAUGUACGCUCCUUUACACGAUAAAAAUCCUUUU | 0.125 ratio |
| AGCACCUGUCCACAUGGUGAGCCCGGUGCUCCCCAACCACCCCCGCCAUGAGGACCAAUGACUAGCCAGUGUAGAAUAAGUUUGGCCAGAUAAGGAGAUGGCACUGCCAAGUGAUACAUG | 0.491 ratio |
| UUUGCAGUUUAUGAUGGUCAUGCUGGAUCCCGAGUGGCAAAUUACUGCUCAACACAUUUAUUAGAACACAUCACUACUAACGAAGACUUUAGGGCAGCUGGAAAAUCAGGAUCUGCUCUU | 0.864 ratio |
| CCCCUCCCGGCCAGACGCUGGCCAUUGCUGCACCAUGUCGUUUUUUACAACAUUCAGCUUCAGCAUUUUUACUAUUAUAAUAAGAAACUGUCCCUCCAAAUUCAAUAAAAAUUGCUUUUC | 1.35 ratio |
| AGGCUCAUCCAGCCCUAUAUCCACAACUACUCCUGGCUGCUCUUUGCUGCCCUGGCUCUCUAUAGUGCCCACCUGACCAGUACAGAGCAGGUGGAUGGGGAGCAGCUGGACCCCCAGGCC | 0.0949 ratio |
| CAACCAGGAGCACCUUUUGGUCCUUCUCUUCAGAGACCUGGUCAGGGACUCCCCAGCCUGCCCCCCAACACAAGUCCCUUCCCUGGUCCAGACCCUGGUUUUCCUGGCCCUGGCGGUGAG | 0.226 ratio |

Repeated from above (block 6):
| Sequence | bound/input enrichment |
| --- | --- |
| CGUCAAACUUUUGGUUGUGUGGGGUUUUUUGUUGUUUUUUGGGUUUUGUUUUUUAAUACUUUAGGGUCCUGAUUUGUGGGAACAGACCUUCUUGUAAAUAACCACUAUUUGAGUUGUGGC | 0.675 ratio |
| CAACCAGGAGCACCUUUUGGUCCUUCUCUUCAGAGACCUGGUCAGGGACUCCCCAGCCUGCCCCCCAACACAAGUCCCUUCCCUGGUCCAGACCCUGGUUUUCCUGGCCCUGGCGGUGAG | 0.226 ratio |
| UUUGCAGUUUAUGAUGGUCAUGCUGGAUCCCGAGUGGCAAAUUACUGCUCAACACAUUUAUUAGAACACAUCACUACUAACGAAGACUUUAGGGCAGCUGGAAAAUCAGGAUCUGCUCUU | 0.864 ratio |
| AGGCUCAUCCAGCCCUAUAUCCACAACUACUCCUGGCUGCUCUUUGCUGCCCUGGCUCUCUAUAGUGCCCACCUGACCAGUACAGAGCAGGUGGAUGGGGAGCAGCUGGACCCCCAGGCC | 0.0949 ratio |
| GCUGCAUCUGACAGAGCAAGUAGACGAGAGGCUGGGUGGUGGGCUCCGGCCAGCCCGAGUCUUAGAGCUGGUGGUUGGUUAUAUCUGGUGCCUGUCUCGAGGAGGGCUUGAGACACAGUG | 0.574 ratio |
